Measurements collected from several papers.
Every numbered part comes from another study and shows a few of its results, in no order.
Sequence of UniProt P00519 (whole entry, unmodified, looked up): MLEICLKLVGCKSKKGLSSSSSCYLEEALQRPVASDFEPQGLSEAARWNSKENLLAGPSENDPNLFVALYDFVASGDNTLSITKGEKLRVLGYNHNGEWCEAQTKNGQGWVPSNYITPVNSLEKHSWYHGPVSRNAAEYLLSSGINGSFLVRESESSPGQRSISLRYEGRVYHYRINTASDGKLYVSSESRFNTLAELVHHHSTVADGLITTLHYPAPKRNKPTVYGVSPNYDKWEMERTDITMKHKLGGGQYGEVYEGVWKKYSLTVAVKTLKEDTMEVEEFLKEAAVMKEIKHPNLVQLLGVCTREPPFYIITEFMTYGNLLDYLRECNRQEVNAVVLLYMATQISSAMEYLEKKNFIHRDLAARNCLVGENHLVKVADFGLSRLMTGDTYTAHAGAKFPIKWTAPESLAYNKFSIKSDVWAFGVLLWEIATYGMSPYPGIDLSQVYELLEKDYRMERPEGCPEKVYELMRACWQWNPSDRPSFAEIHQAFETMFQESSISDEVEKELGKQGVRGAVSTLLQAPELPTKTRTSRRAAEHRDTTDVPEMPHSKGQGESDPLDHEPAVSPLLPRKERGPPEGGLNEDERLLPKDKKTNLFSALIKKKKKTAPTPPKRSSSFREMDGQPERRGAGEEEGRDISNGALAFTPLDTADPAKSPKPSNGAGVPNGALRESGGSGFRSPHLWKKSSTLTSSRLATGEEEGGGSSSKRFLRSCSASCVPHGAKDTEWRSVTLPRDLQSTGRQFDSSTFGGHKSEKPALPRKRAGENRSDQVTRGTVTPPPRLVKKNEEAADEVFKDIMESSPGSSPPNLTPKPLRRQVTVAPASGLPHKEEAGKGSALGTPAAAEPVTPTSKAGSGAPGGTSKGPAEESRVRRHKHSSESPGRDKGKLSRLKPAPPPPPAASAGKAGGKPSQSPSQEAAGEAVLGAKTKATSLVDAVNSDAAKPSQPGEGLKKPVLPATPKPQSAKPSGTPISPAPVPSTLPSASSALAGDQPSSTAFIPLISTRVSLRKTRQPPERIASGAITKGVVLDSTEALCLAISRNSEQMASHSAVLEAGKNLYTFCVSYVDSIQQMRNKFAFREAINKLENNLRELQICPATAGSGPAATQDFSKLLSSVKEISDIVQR
Sequence of UniProt P16234 (whole entry, looked up): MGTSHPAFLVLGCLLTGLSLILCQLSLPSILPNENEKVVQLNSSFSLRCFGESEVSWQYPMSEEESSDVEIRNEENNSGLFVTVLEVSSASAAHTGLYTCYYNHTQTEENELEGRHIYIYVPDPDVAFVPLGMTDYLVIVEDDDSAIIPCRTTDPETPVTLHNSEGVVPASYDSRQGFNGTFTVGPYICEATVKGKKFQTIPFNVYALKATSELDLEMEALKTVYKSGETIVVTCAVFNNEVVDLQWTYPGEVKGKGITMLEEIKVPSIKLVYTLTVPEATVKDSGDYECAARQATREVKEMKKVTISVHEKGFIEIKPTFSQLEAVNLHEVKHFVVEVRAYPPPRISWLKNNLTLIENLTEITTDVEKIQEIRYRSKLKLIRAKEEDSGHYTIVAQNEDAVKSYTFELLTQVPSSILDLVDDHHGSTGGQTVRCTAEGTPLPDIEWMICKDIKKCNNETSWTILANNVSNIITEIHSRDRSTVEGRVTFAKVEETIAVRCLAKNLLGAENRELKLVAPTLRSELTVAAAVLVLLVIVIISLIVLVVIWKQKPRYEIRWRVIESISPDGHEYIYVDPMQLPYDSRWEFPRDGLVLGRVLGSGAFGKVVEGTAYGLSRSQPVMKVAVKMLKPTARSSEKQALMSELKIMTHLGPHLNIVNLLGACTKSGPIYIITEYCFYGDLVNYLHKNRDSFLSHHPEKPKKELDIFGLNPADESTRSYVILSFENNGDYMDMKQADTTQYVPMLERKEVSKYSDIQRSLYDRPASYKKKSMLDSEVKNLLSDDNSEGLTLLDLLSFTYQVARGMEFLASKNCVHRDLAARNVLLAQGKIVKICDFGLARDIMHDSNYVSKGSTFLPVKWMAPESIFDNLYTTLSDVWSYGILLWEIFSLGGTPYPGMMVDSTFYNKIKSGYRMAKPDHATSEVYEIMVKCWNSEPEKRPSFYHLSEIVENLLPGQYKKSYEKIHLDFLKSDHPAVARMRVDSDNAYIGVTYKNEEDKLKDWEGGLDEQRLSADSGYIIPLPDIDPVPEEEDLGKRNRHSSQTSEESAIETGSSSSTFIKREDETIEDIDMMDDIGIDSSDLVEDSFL
Sequence of UniProt Q9H4A3 (whole entry, looked up): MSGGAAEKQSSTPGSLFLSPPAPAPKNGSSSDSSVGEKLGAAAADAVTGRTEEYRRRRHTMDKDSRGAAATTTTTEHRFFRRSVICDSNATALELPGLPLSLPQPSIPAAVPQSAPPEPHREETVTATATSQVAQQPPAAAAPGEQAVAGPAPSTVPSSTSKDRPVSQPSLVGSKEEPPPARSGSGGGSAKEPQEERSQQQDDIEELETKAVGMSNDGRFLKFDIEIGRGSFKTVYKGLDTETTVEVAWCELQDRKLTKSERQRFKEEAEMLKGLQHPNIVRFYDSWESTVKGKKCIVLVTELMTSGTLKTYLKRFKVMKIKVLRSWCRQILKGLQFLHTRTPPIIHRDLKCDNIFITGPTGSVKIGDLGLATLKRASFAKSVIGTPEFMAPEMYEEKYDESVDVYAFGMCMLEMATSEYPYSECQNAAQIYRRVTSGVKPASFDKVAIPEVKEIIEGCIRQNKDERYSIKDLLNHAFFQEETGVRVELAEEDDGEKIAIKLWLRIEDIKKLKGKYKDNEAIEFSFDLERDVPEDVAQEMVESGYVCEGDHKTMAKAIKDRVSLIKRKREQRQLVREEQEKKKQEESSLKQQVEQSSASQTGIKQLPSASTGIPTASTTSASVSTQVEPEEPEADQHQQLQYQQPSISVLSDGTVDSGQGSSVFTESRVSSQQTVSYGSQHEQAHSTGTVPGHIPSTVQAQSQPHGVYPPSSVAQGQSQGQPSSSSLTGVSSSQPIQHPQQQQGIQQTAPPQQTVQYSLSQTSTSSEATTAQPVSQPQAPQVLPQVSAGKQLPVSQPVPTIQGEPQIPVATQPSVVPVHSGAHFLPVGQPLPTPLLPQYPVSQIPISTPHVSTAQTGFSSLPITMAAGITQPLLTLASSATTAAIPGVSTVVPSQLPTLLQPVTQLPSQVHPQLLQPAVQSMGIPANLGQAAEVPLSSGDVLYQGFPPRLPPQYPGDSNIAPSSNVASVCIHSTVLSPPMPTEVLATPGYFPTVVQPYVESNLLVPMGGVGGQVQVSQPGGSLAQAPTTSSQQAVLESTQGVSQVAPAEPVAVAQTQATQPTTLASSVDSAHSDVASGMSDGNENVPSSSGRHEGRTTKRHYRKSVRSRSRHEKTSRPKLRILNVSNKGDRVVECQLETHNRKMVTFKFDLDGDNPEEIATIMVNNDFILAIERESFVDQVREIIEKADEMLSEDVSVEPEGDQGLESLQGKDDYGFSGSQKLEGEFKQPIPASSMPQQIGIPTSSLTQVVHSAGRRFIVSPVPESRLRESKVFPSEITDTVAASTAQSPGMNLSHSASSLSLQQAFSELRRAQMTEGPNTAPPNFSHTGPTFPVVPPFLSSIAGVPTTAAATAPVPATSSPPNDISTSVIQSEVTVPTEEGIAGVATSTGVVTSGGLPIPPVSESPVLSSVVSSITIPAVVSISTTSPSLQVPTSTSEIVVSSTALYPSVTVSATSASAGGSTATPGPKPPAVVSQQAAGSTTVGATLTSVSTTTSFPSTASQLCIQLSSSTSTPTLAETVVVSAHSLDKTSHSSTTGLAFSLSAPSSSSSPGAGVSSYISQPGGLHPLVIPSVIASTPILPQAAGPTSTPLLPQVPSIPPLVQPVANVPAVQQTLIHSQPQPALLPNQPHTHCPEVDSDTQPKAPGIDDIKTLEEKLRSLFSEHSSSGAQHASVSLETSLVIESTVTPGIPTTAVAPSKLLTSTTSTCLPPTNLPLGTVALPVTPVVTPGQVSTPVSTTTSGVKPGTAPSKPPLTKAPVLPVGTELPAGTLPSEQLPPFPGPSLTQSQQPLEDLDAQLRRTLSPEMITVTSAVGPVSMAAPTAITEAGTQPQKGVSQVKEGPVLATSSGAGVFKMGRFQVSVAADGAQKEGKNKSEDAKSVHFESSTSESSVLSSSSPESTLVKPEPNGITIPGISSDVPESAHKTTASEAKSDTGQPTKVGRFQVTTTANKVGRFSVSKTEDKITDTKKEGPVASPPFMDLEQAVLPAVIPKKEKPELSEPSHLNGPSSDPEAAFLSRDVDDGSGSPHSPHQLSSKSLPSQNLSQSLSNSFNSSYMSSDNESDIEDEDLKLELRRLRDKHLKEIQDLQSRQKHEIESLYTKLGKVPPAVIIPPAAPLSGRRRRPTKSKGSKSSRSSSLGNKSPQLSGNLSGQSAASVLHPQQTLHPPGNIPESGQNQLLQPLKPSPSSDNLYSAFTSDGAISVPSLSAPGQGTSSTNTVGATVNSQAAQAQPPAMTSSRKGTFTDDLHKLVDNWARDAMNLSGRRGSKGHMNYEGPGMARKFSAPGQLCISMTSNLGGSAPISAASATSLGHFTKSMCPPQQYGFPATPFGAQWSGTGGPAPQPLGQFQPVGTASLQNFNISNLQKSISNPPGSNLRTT

Block 1
Target: Sal-like protein 4, full length isoform B (SALL4, Homo sapiens, UniProt Q9UJQ4-2, residues 1-616)
Method: universal PBM
Molecule type: double-stranded DNA, one strand shown
Matrix: in vitro
Concentration: not given
Setting: 8-mer, flanks averaged, mean of replicates
Direction: higher = stronger binding
Construct (chain): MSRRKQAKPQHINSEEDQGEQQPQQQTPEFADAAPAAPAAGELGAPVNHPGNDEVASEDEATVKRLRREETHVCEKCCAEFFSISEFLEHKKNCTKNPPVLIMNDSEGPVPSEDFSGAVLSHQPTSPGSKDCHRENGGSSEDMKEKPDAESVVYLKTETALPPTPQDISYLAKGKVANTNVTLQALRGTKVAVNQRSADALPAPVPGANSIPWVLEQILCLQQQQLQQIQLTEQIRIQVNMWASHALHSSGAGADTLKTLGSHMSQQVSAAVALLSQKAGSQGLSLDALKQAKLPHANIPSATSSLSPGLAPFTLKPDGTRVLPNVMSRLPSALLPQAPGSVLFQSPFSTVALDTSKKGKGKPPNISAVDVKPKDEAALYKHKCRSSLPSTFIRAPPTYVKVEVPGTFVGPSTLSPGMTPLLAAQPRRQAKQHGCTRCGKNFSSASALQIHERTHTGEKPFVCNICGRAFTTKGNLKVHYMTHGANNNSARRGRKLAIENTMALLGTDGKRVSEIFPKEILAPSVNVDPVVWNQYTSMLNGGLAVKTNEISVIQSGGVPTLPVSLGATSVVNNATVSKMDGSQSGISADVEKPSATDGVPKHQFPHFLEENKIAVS
Oligonucleotide | E-score
CAAACATG | 0.182
CCTGGTGC | -0.289
AGGTCACA | -0.0698
GCATGTAC | -0.0812
GGGTGCCA | -0.131
ACACTCTG | -0.0121
TAAAATGA | 0.296
CTCACGTA | -0.0566

Block 2
Target: PABPC1L2, full length, GST fusion (mouse, UniProt A0ABA7IW68)
Method: RNAcompete
Molecule type: RNA
Matrix: in vitro
Concentration: 20 nM
Setting: 7-mer, probes averaged, single round
Reference: mean of 7-mers
Direction: higher = stronger binding
Residues (chain): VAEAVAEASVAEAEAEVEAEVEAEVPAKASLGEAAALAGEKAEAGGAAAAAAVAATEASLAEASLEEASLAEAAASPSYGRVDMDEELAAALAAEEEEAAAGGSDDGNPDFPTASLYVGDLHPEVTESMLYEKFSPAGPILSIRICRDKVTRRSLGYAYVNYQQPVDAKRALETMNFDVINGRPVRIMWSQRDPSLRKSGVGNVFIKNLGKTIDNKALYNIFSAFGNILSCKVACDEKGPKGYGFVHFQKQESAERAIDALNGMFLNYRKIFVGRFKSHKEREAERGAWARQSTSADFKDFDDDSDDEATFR
Oligonucleotide | 7-mer Z-score
ACACGUC | -0.137
CUGUAAC | -0.282
CCCCUCA | -0.262
AUCCGCU | -0.289
GCUAAGG | 0.0297
UGGCCGC | -0.204
AGAUCAC | -0.251
CGAUUCA | -0.141

Block 3
Target: Casein kinase I isoform gamma-3 (CSNK1G3, Homo sapiens, UniProt Q9Y6M4)
Sequence of UniProt Q9Y6M4 (whole entry, looked up): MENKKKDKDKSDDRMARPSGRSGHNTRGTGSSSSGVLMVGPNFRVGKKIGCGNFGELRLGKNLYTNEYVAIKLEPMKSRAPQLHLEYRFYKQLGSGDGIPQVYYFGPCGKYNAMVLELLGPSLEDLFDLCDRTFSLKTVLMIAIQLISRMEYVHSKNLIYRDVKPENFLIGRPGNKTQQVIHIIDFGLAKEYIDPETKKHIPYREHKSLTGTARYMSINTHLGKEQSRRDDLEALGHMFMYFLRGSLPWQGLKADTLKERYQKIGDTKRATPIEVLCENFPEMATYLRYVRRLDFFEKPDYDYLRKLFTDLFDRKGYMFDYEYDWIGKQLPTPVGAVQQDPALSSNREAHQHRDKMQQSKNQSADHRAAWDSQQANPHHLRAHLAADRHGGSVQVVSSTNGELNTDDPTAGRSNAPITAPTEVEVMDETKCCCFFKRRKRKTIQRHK
Read-out: enzyme activity
Action: inhibitor
Concentration: 0.5 µM
Reference: control
Compound | remaining activity [%]
O=C(CCCc1ccc(-c2ccccc2F)cc1)Nc1ccc(O)cc1 | 104
CCOC(=O)c1c(C)[nH]c(/C=C2\C(=O)Nc3ccccc32)c1C | 97.9
COc1ccc(OC)c2c(=S)c3ccccc3[nH]c12 | 86.2
COc1cc2ncnc(Nc3ccc(Oc4ccccc4)cc3)c2cc1OC | 99.4
O=C(Nc1cccc(Nc2cc(Nc3cccc(C(F)(F)F)c3)ncn2)c1)C1CC1 | 107
Cc1cccc(-c2[nH]c(C(C)(C)C)nc2-c2ccc3c(c2)OCO3)n1 | 102
CN(C)c1ccc(C=C2C(=O)Nc3ccccc32)cc1 | 101
OCC(O)CCON=C1C(c2c(O)[nH]c3ccccc23)=Nc2ccccc21 (centres unmarked) | 90.7
C#Cc1cccc(Nc2ncnc3cc(OCCOC)c(OCCOC)cc23)c1 | 106
Oc1ccc(-c2nc(-c3ccncc3)c(-c3ccc(F)cc3)[nH]2)cc1 | 102
Cc1ccc(Nc2nccc(N(C)c3ccc4c(C)n(C)nc4c3)n2)cc1S(N)(=O)=O | 97.1

Block 4
SMILES: CN([C@@H]1CCc2c(CC(=O)O)c3ccccc3n2C1)S(=O)(=O)c1ccc(F)cc1
Method: competition with immobilised ligand
Concentration: 1 µM
target | test | remaining binding [%]
Tyrosine-protein kinase ABL1, non-phosphorylated (ABL1, Homo sapiens, UniProt P00519, F317I) | binding | 79
Serine/threonine-protein kinase WNK1 (WNK1, Homo sapiens, UniProt Q9H4A3) | cell-free assay | 96
Activin receptor type-1-like (ACVRL1, Homo sapiens, UniProt P37023) | cell-free assay | 88
Platelet-derived growth factor receptor alpha (PDGFRA, Homo sapiens, UniProt P16234) | cell-free assay | 100
Casein kinase I isoform gamma-3 (CSNK1G3, Homo sapiens, UniProt Q9Y6M4) | cell-free assay | 100

Repeated from above (block 3):
Compound | remaining activity [%]
O=C(Nc1cccc(Nc2cc(Nc3cccc(C(F)(F)F)c3)ncn2)c1)C1CC1 | 107
Cc1cccc(-c2[nH]c(C(C)(C)C)nc2-c2ccc3c(c2)OCO3)n1 | 102
CN(C)c1ccc(C=C2C(=O)Nc3ccccc32)cc1 | 101
